Results of several laboratories.
Protocols differ between the studies behind these lines.
Matrix: plasma

CC(C)CCN(Cc1ccc(F)cc1)c1nc(C#N)nc(N2CCOCC2)n1 — AUC (mouse; intraperitoneal, 10 mg/kg, single dose): 195 ng·h/mL
COC1C=COC2(C)Oc3c(C)c(O)c4c(c3C2=O)C2=NC3(CCN(CC(C)C)CC3)NC2=C(NC(=O)C(C)=CC=CC(C)C(O)C(C)C(O)C(C)C(OC(=O)Nc2cscn2)C1C)C4=O (stereo not drawn) — AUC (female CD-1 mouse; oral, 10 mg/kg): 35700 ng·h/mL
CN(C)CCNC(=O)/C=C/C(Cc1ccccc1)Nc1ccnc2cc(Cl)ccc12 (stereo not drawn) — AUC (CD-1 mouse; oral, 5 mg/kg, single dose): 148 ng·h/mL
Nc1ccn(C[C@@H](CO)OCP(=O)(O)OCCCS(=O)(=O)CCCCCCCCCCCCC2CCC2)c(=O)n1 — AUC (mouse; intravenous, 3 mg/kg, single dose): 523 ng·h/mL
NC(=O)c1c(F)ccc(OCc2nc3cc(Cl)cnc3s2)c1F — AUC (mouse; oral, 3 mg/kg): 1390 ng·h/mL
Cc1cc(O)cc(O)c1C(=O)c1c2c3c(c(O)cc(C)c3oc1=O)C(=O)c1c(O)cc(O)cc1-2 — AUC (male Kunming mouse; intraperitoneal, 15 mg/kg): 22700 ng·h/mL
CCc1nc(N)nc(N)c1C#C[C@H](C)c1cc(-c2ccncc2)ccc1OC — AUC (mouse; oral, 16 mg/kg, single dose): 410 ng·h/mL
O=C(c1ccccc1)N1C(c2ccc(OCC3CCN(CCCF)C3)cc2)c2ccc(O)cc2CC12CC2 (stereo not drawn) — AUC (C57BL/6 mouse; oral, 25 mg/kg): 2930 ng·h/mL
CC(C)(O)c1ccc(N2Cc3c(ccnc3-c3ccc(F)cc3OCC(F)(F)F)C2=O)cc1 — AUC (male C57BL/6 mouse; oral, 10 mg/kg, single dose): 38000 ng·h/mL
COc1ccccc1NC(=O)OC1C(C)C(OC)C=COC2(C)Oc3c(C)c(O)c4c(c3C2=O)C2=NC3(CCN(CC(C)C)CC3)NC2=C(NC(=O)C(C)=CC=CC(C)C(O)C(C)C(O)C1C)C4=O (stereo not drawn) — AUC (female CD-1 mouse; oral, 10 mg/kg): 11300 ng·h/mL
CCc1nc(N)nc(N)c1C#C[C@H](C)c1cc(-c2cc(C)nc(C)c2)ccc1Cl — AUC (mouse; intraperitoneal, 5 mg/kg): 14000 ng·h/mL
CC(C)CCN(c1nc(C#N)nc(NC2COC2)n1)C(C)c1ccc(F)cc1 (stereo not drawn) — AUC (mouse; intraperitoneal, 10 mg/kg, single dose): 1660 ng·h/mL
CCS(=O)(=O)c1ccccc1C(=O)N1CCN(c2nc3ccc(F)cc3s2)C[C@@H]1C — AUC (mouse; oral, 3 mg/kg): 988 ng·h/mL
COC1C=COC2(C)Oc3c(C)c(O)c4c(c3C2=O)C2=NC3(CCN(CC(C)C)CC3)NC2=C(NC(=O)C(C)=CC=CC(C)C(O)C(C)C(O)C(C)C(OC(=O)c2cncnc2)C1C)C4=O (stereo not drawn) — AUC (female CD-1 mouse; oral, 10 mg/kg): 33900 ng·h/mL
CC(C)(C)NCC(SS(=O)(=O)O)c1ccccc1 (stereo not drawn) — AUC (female Swiss mouse; oral, 100 mg/kg): 1430 ng·h/mL
